Measurements gathered from unrelated publications.
Each line is one published result; not all experiments were run side by side.
Organism: Staphylococcus aureus

Structure (SMILES) | test | system | setting | scale | MIC
CC(C)C(O)C(NC(=O)[C@H](Cc1ccc(O)cc1)NC(=O)C(Cc1ccc(O)c(Cl)c1)[N+](C)(C)C)C(=O)N[C@@H](C)C(=O)O (stereo partly shown) |  | ATCC 29213 |  |  | > 100 µM
CC(C)=CCc1cc2c(cc1O)OC[C@H]1c3ccc(O)c(CC=C(C)C)c3O[C@@H]21 |  | ATCC 25923 |  |  | 2 µg/mL
CN(C)c1cc(CNc2ccccc2)c(O)c2c1C[C@H]1C[C@H]3[C@H](N(C)C)C(O)=C(C(N)=O)C(=O)[C@@]3(O)C(O)=C1C2=O | microbial growth, broth dilution |  |  |  | 2 µg/mL
CCCCCCCCCc1nc2cc(F)ccc2c(=O)[nH]1 | broth microdilution | RN6390B |  |  | > 100 µM
O=C(NCCNCCO)c1cn(Cc2ccccc2)c2c(Cl)c(OCc3ccc(C(F)(F)F)cc3)c(Cl)cc2c1=O |  | ATCC 43300 MRSA |  | ≥80% growth inhibition | < 0.25 µg/mL
Oc1c(Br)cc(Br)c2nc3cc(Br)ccc3nc12 | broth microdilution | MRSA 1707 | 16 h, 37 °C |  | 0.05 µM
CNC(CC(C)C)C(=O)NC1C(=O)NC(CC(N)=O)C(=O)NC2C(=O)NC3C(=O)NC(C(=O)NC(C(=O)O)c4cc(O)cc(O)c4-c4cc3ccc4O)C(O)c3ccc(c(Cl)c3)Oc3cc2cc(c3OC2OC(CO)C(O)C(O)C2OC2CC(C)(NC(=O)CCCC[N+](C)(C)Cc3ccccc3)C(O)C(C)O2)Oc2ccc(cc2Cl)C1O (stereo not shown) | agar dilution | MRSA clinical isolate MRSA3 |  |  | 512 µg/mL
NC[C@@H]1O[C@H](O[C@H]2[C@@H](O)[C@H](O[C@@H]3[C@@H](O)[C@H](N)C[C@H](N)[C@H]3O[C@H]3O[C@H](CO)[C@@H](SCCF)[C@H](O)[C@H]3N)O[C@@H]2CO)[C@H](N)[C@@H](O)[C@@H]1O |  | methicillin-resistant |  |  | 8 µg/mL
O=C1OCC(NCc2ccccc2)N1/N=C/c1ccc([N+](=O)[O-])o1 (stereo not shown) | microbial growth, broth dilution | ATCC29213 | 18 h |  | 3.12 µg/mL
C/C(=N\Nc1nc(-c2ccc(Cl)cc2)cs1)c1ccc2c(c1)sc1nc(=O)c(C#N)cn12 | broth microdilution |  |  |  | < 35 µg/mL
COCO[C@H]1[C@H](O)[C@@H](N)[C@@H](O[C@H]2[C@H](O[C@@H]3O[C@H](CO)[C@@H](O[C@H]4O[C@@H](CN)[C@@H](O)[C@H](O)[C@H]4N)[C@H]3O)[C@@H](O)[C@H](N)C[C@@H]2N)O[C@@H]1CO | broth microdilution | MRSA isolate AG 045 |  |  | 32 µg/mL
CC1C=CC=CC(C)C2C=CC3CC(C)(O)C(F)C(C)C3C2C(=O)C(Cl)(Cl)C(=O)C(C)C(=O)O1 (stereo not shown) | microbial growth, broth dilution | NEWMAN |  |  | 0.2 µg/mL
CN(Cc1cc(N(C)C)c2c(c1O)C(=O)C1=C(O)[C@]3(O)C(=O)C(C(N)=O)=C(O)[C@@H](N(C)C)[C@@H]3C[C@@H]1C2)CC(C)(C)C |  | RN4250, Tet K efflux |  |  | 0.5 µg/mL
CCc1nc(N)nc(N)c1C#CC(C)c1cc(-c2cc(C)nc(C)c2)ccc1Cl (stereo not shown) | microbial growth, broth dilution | ATCC43300 | 18 h |  | 0.312 µg/mL
CCN(CC)CCCN1/C(=C/c2cc(C)[n+](C)c3ccccc23)Sc2ccccc21 | broth microdilution | ATCC 29213 |  |  | 2 µg/mL
C=CCO[C@H]1[C@H](O)[C@@H](N)[C@@H](O[C@H]2[C@H](O[C@@H]3O[C@H](CO)[C@@H](O[C@H]4O[C@@H](CN)[C@@H](O)[C@H](O)[C@H]4N)[C@H]3O)[C@@H](O)[C@H](N)C[C@@H]2N)O[C@@H]1CO | broth microdilution | MRSA isolate AG 038 |  |  | 8 to 16 µg/mL

Structure (SMILES) | test | system | setting | scale | MIC
CCCCCCCCCc1nc2cc(Cl)ccc2c(=O)n1CCCN |  | RN6390B |  |  | 2.3 µg/mL
CNC(CC(C)C)C(=O)NC1C(=O)NC(CC(N)=O)C(=O)NC2C(=O)NC3C(=O)NC(C(=O)NC(C(=O)O)c4cc(O)cc(O)c4-c4cc3ccc4O)C(O)c3ccc(c(Cl)c3)Oc3cc2cc(c3OC2OC(CO)C(O)C(O)C2OC2CC(C)(NC(=O)CCCCCCCCC[N+](C)(C)C)C(O)C(C)O2)Oc2ccc(cc2Cl)C1O (stereo not shown) | agar dilution | MRSA clinical isolate MRSA3 |  |  | 512 µg/mL
Oc1cc(F)ccc1Oc1ccccc1 | microbial growth, broth dilution |  |  |  | 39 µM
CC(C)C[C@H](NC(=O)[C@H](CC(N)=O)NC(=O)[C@H](CCCNC(=N)N)NC(=O)[C@@H](CC(C)C)NC(=O)[C@H](Cc1ccc2ccccc2c1)NC(=O)[C@H](CC(=O)O)NC(=O)[C@H](CCCCN)NC(=O)[C@@H](CC(C)C)NC(=O)[C@H](CCCNC(=N)N)NC(=O)[C@H](CCC(N)=O)NC(=O)[C@@H](NC(=O)[C@@H](CC(C)C)NC(=O)[C@H](CCCNC(=N)N)NC(=O)[C@H](CCCCN)NC(=O)[C@H](Cc1ccccc1)NC(=O)CN)C(C)C)C(=O)N[C@H](C(N)=O)C(C)C | broth microdilution | USA300 LAC, MRSA |  |  | 25 µM
CN(C)c1cc(CNCc2ccncc2)c(O)c2c1C[C@H]1C[C@H]3[C@H](N(C)C)C(O)=C(C(N)=O)C(=O)[C@@]3(O)C(O)=C1C2=O |  | RN4250, Tet K efflux |  |  | 4 µg/mL
CCCCCCCCN1C(=O)/C(=N\NC(=N)N)c2cc(C)ccc21 | microbial growth, broth dilution |  | 18 h |  | 6 µg/mL
NC[C@@H]1O[C@H](O[C@H]2[C@@H](O)[C@H](O[C@@H]3[C@@H](O)[C@H](N)C[C@H](N)[C@H]3O[C@H]3O[C@H](CO)[C@@H](OCC(O)CO)[C@H](O)[C@H]3N)O[C@@H]2CO)[C@H](N)[C@@H](O)[C@@H]1O (stereo partly shown) | broth microdilution | MRSA isolate AG 042 |  |  | 16 µg/mL
C=CCNCc1cc(N(C)C)c2c(c1O)C(=O)C1=C(O)[C@]3(O)C(=O)C(C(N)=O)=C(O)[C@@H](N(C)C)[C@@H]3C[C@@H]1C2 |  | RN4250, Tet K efflux |  |  | 2 µg/mL
CCn1cc(/C=C/c2ccc3ccccc3[n+]2CC)c2ccccc21 |  | 1466 |  |  | 4 µg/mL
CCC1(C)CCN(Cc2cc(N(C)C)c3c(c2O)C(=O)C2=C(O)[C@]4(O)C(=O)C(C(N)=O)=C(O)[C@@H](N(C)C)[C@@H]4C[C@@H]2C3)CC1 |  | RN4250, Tet K efflux |  |  | 1 µg/mL
Cc1cc(/C=C2\Sc3ccccc3N2CCCN2CCCC2)c2ccccc2[n+]1C | microbial growth, broth dilution | MRSA |  |  | 32 µg/mL
COC1CCN(Cc2cc(N(C)C)c3c(c2O)C(=O)C2=C(O)[C@]4(O)C(=O)C(C(N)=O)=C(O)[C@@H](N(C)C)[C@@H]4C[C@@H]2C3)CC1 | microbial growth, broth dilution |  |  |  | 1 µg/mL
c1ccc(CN2CCOCCOCCN(CCCCCCCCCCCCCCN3CCOCCOCCN(CCCCCCCCCCCCCCN4CCOCCOCCN(Cc5ccccc5)CCOCCOCC4)CCOCCOCC3)CCOCCOCC2)cc1 | microbial growth | MRSA |  |  | 1.5 µM
CN(C)Cc1cc(N(C)C)c2c(c1O)C(=O)C1=C(O)[C@]3(O)C(=O)C(C(N)=O)=C(O)[C@@H](N(C)C)[C@@H]3C[C@@H]1C2 |  | RN4250, Tet K efflux |  |  | 2 µg/mL
O=[N+]([O-])c1ccc(CSc2nnc(C34CC5CC(CC(C5)C3)C4)n2-c2ccccc2)cc1 | two-fold dilution | IFO 3060 | 24 h, 36 °C |  | 4 µg/mL

Some of these lines once more:
Structure (SMILES) | test | system | setting | scale | MIC
Oc1c(Br)cc(Br)c2nc3cc(Br)ccc3nc12 | broth microdilution | MRSA 1707 | 16 h, 37 °C |  | 0.05 µM
NC[C@@H]1O[C@H](O[C@H]2[C@@H](O)[C@H](O[C@@H]3[C@@H](O)[C@H](N)C[C@H](N)[C@H]3O[C@H]3O[C@H](CO)[C@@H](SCCF)[C@H](O)[C@H]3N)O[C@@H]2CO)[C@H](N)[C@@H](O)[C@@H]1O |  | methicillin-resistant |  |  | 8 µg/mL
O=C(NCCNCCO)c1cn(Cc2ccccc2)c2c(Cl)c(OCc3ccc(C(F)(F)F)cc3)c(Cl)cc2c1=O |  | ATCC 43300 MRSA |  | ≥80% growth inhibition | < 0.25 µg/mL
C=CCNCc1cc(N(C)C)c2c(c1O)C(=O)C1=C(O)[C@]3(O)C(=O)C(C(N)=O)=C(O)[C@@H](N(C)C)[C@@H]3C[C@@H]1C2 |  | RN4250, Tet K efflux |  |  | 2 µg/mL
CC(C)C[C@H](NC(=O)[C@H](CC(N)=O)NC(=O)[C@H](CCCNC(=N)N)NC(=O)[C@@H](CC(C)C)NC(=O)[C@H](Cc1ccc2ccccc2c1)NC(=O)[C@H](CC(=O)O)NC(=O)[C@H](CCCCN)NC(=O)[C@@H](CC(C)C)NC(=O)[C@H](CCCNC(=N)N)NC(=O)[C@H](CCC(N)=O)NC(=O)[C@@H](NC(=O)[C@@H](CC(C)C)NC(=O)[C@H](CCCNC(=N)N)NC(=O)[C@H](CCCCN)NC(=O)[C@H](Cc1ccccc1)NC(=O)CN)C(C)C)C(=O)N[C@H](C(N)=O)C(C)C | broth microdilution | USA300 LAC, MRSA |  |  | 25 µM
